Experimental data from different studies.
Every numbered part comes from another study and shows a few of its results, in no order.

Set 1
Target: Centromere-binding protein 1, full length, N-terminal tag (CBF1, Saccharomyces cerevisiae, UniProt P17106, residues 1-351)
UniProt P17106, sequence (whole entry, looked up): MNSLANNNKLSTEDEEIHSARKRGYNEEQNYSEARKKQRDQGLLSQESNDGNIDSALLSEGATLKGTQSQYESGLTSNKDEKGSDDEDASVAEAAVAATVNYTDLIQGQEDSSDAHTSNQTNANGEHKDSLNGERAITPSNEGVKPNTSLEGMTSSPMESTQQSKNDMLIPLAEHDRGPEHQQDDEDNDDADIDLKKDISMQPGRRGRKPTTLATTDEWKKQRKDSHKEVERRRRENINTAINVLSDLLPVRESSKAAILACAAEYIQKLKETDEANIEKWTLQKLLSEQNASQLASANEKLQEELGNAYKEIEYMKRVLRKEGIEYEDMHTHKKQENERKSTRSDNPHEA
Technique: protein-binding microarray
Molecule type: double-stranded DNA, one strand shown
Sample: in vitro
Tested at: 0.8 µM
Setting: whole 60-bp probe, no competitor
Reading: higher = stronger binding
All sequences stand within: … GTCTTGATTCGCTTGACGCTGCTG
| Oligonucleotide | fluorescence intensity |
| --- | --- |
| CTAATCGCATAACCGCACGTATATACACGCACATTC | 527 a.u. |
| CTAAGAGCAGTTCCTCAGGTGTTTCTTGTTACTTTC | 523 a.u. |
| CTAATTAATGAAAGTCACAGGAGACATTTTTACTTC | 583 a.u. |
| GAAGTAATGTACAATGTCGTGGTCATGAGACAATAG | 957 a.u. |
| TGTACGAAGCTATTTCACACCATTATAGTAGTTAGG | 527 a.u. |
| CCTAACTACTATAGTTACGTGTCATAGCTTCGTACA | 499 a.u. |
| GAAAAAAAATAAAGCATCAGAATCAATTTCTTGTAG | 515 a.u. |
| CTACATTGCTAGTGTCACGTTCAGAAAACGAGATTC | 1430 a.u. |
| GAAGATGGGTCTTGCAACGTGATCTAGTAGATATAG | 1730 a.u. |
| CTAGTAACAGGACAGCTGACAATTGCTAAGTTATTC | 611 a.u. |
| GAACGCCTGCTACCATGTGAGAGTTGGCGTTAGTAG | 582 a.u. |
| CTAATTAAATAACCTCAGTCACCTTGTGCAAGATTC | 496 a.u. |
| GAAGCATGCTGCAAAGACGTGCCTTCGATGCTCTAG | 478 a.u. |
| GAAAAGTTGTACATTCACGTGGGCCTTATCGCCTAG | 2030 a.u. |
| CTAATCGAGTAATTTCCGCTGATGTATAATATATTC | 524 a.u. |
| TGTACGAAGCTATCCCACGTTGTTATAGTAGTTAGG | 548 a.u. |
| TGTACGAAGCTATGTCAGGTGAATATAGTAGTTAGG | 928 a.u. |
| CTAACCACACACTACGTCACAACACAACAAGACTTC | 588 a.u. |
| GAATTAGTATAAAGTCACGCAAACGGATCTCTGTAG | 711 a.u. |
| CTATTTAAATCGTGACATGTGCTTTAATAGAAATTC | 1900 a.u. |
| CTACATCTTTAAAGGCACGCGATGTACTGTCTTTTC | 651 a.u. |
| GAAACTAGGCCGCTTCACATGAAATTAGATGTTTAG | 513 a.u. |

Set 2
Target: Ras GTPase-activating protein-binding protein 1, full length (G3BP1, Homo sapiens, UniProt Q13283)
UniProt Q13283, sequence (whole entry, looked up): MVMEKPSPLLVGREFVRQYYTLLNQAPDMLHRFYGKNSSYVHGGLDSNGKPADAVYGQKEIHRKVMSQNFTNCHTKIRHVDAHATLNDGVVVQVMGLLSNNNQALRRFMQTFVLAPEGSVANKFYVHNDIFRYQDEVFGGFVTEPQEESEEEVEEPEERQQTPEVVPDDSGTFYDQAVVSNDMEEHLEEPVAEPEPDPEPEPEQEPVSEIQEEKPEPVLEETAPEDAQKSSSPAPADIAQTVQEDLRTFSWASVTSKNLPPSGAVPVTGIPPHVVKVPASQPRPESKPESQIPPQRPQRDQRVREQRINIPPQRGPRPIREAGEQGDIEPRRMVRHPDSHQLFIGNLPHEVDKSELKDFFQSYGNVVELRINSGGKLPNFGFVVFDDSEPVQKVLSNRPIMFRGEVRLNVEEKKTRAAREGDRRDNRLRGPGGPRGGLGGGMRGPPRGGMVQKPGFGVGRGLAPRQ
Technique: RNA Bind-n-Seq
Molecule type: RNA
Sample: in vitro
Tested at: 200 nM
Setting: whole 134-nt RNA, ends assumed
Together with: 150 mM LiCl
Reference: input library
Reading: higher = stronger binding
All molecules: 7-deaza-guanosine replaces G
All sequences stand within: GGGAGUUCUACAGUCCGACGAUC … UGGAAUUCUCGGGUGUCAAGG
| Oligonucleotide | log2 enrichment |
| --- | --- |
| ACCAUGCAGGUGGGCAUCUUUGGGAAGUGGGGCAAGGGGGGAAUAGGGAGGGGGGUAACACUUUGGGAACAGGUGGUCCCAGGUCGUUUC | 0.383 |
| UCCUGUGCUACACAUCGUAUGUACCGAAUCGGGUUUUUUUGGGUUUUUGGGAAAAAGGGAAAGUAUUAUGUUACGCCGUUCGGAUCUGCA | 0.0453 |
| CAAGUCCUGUGCUACACAUCGUAUGUACCGAAUCGGGGAAGGGGAAGGGAAGGGGAAAGUAUUAUGUUACGCCGUUCGGAUCUGCACUUC | -0.0252 |
| UAACUUUAGAGGAGGAUCUGAUGGAUCUGGCAGUGGACGUGGAUUUGGGGAUGGCUAUAAUGGGUAUGGAGGAGGACCUGGAGGUGGCAA | -0.146 |
| UCCUGUGCUACACAUCGUAUGUACCGAAUCGGGGAAAAAAGGGAAAAAAGGAAAAAAGGGAAAGUAUUAUGUUACGCCGUUCGGAUCUGC | 0.317 |
| GAAGAUUGGCUUAAAAUGGCUACUGUGAUGGGAACAGUGUCUUAGGGAGAUGCAGCUUGGACUUGAGGUAAAUUGAAUACUUUACAACUG | -0.131 |
| GCAGGAAGUAAAAACAAAUGGAAAUGCUUCGGAUAGUGGCAGGGGUGGGGGUUGCUAAGGAAAGGGUGGGAUGGGAGUGAGUAAAGAGUU | 0.0243 |
| CUCAAGUCCUGUGCUACACAUCGUAUGUACCGAAUCGGGAAGGAAGGAAGGGGAAAGUAUUAUGUUACGCCGUUCGGAUCUGCACUUCCA | -0.343 |
| UGGCCCUGGUGGCAUGCGGGGAGGAAGGGGUGGCCUCAUGGAUCGUGGUGGUCCCGGUGGAAUGUUCAGAGGUGGCCGUGGUGGAGACAG | 0.281 |
| UGAAUGCUGAGAAUGUUGCUGGUCACCAGAUUGCCUCUGAAACACAGAUCCUUGAGGGCUCUUUGGGAAUAUCUGUAAAGUCACACUGCA | -0.539 |
| UCAAGUCCUGUGCUACACAUCGUAUGUACCGAAUCGGGGAAGGGAAGGGAAGGGGAAAGUAUUAUGUUACGCCGUUCGGAUCUGCACUUC | -0.0634 |

Set 3
Target: RNA binding protein fox-1 homolog 2, RRM domain, GST-SBP tag (RBFOX2, Homo sapiens, UniProt O43251-10, residues 100-194)
Technique: RNA Bind-n-Seq
Molecule type: RNA
Sample: in vitro
Tested at: 365 nM
Setting: natural RNA segment, single round, ends assumed
Reference: no-protein control
Reading: higher = stronger binding
All sequences stand within: GGGAGUUCUACAGUCCGACGAUC … UGGAAUUCUCGGGUGCCAA
Residues (chain): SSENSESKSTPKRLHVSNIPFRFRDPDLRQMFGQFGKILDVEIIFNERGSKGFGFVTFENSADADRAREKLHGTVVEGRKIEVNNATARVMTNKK
| Oligonucleotide | RBNS enrichment (R) |
| --- | --- |
| UACAAGUUGGUCAAAAUAUUCCAUGUACAAAUAGGGCUUCUGUGUCCAUAGCCUUGUAAGAGAUACUGAUUGUAUCUGAAAUUAUUUUUUAAAAAAAUAAAUUAUCCUGC | 0.846 |
| CCACCUCCCACUGGGCACCCCCCAACACGGUGUCCUGCCACCCAGCGCCUGGCUCCAGGAAAACACGUUGCCUUCCUUCCCGGCAGCUUCGCCACUCUCCUUAUGGACUC | 0.459 |
| UAUUUAUUUUUCUAUUAUAGCCAUAUUUAUAUAUUUAUGCACUUGUAAAUAAAUGUAUAUGUUUUAUAAUUCUGGAGAGACAUAAGGAGUCCUACCCGUUGAGGUUGGAG | 0.676 |
| ACCUCCUGGCUUCAACUGGGUGAGGGCCGUAUUCCUGCCACUCUGCUCCGCCUCAGCCUUGAGAACUCCACGUGGGCUGGGUGGGAAGGUGCUGACGAUUUUCACACUGU | 0.39 |
| GUGGCUCUGCCACCCUGCAGGCAGCCCUCUUGGCCUAGUUUUCCUGGCAUAGGGUGAGGCACAGCUUGAAAGGUGGUCAGACCUGCUUGGGCUUCUUUGCUUUUCAAAUG | 0.264 |
| UUGAAUUUUUUUCAGAUCCACUUAAAAUAUUUAGAAAAACAAGUUUUAUUCCUUAUGUGUCUUAUAAGGAAUAAAAUGGUCUUCAUUUGACACUUACUUUCCCAUGAACA | 0.429 |
| UUUUGUUUUUUGUUUUCUUUUUCCUAGGGGACAAGCAUGGGUGUUUGAUUUCAGAAAUCAGUACCUGGCGAGAUUUUUGUCUCAAAACGACUAUUUGAAUUUCAAGAACU | 0.329 |
| AAAGAGGAAAUCUUAUUUAACCCUUUGUGUCCUAGAUUGACUUACACACAUAGCCUAGAGCUCAGUUUUAGUUUAACAUUGUGAAAAUAUUAAAAGAAUCUUGUAACUUU | 0.583 |
| UUUUCACAAGUAUGGCGGCUUACCACGAGAUAGCUACUGGGUAAGCAAAGCCUGGGACAUUUGCAAUAGCAAGCACCCUCUGUAGUCUCCUGCAGAGCCAUAGCUUCAAU | 0.272 |
| CUCCUAAAAAUAUCAUUGUUCUUGGGAGCAGUGUAUGUUACUUUACAUAGCAGCGGUUCCUGUCAUGUGUUCAUGUCAGAAUAUUUUUGGUUUUAAACUUUCUUAUUGCC | 0.622 |
| UUCCUGGUUCUGGGGAGAAGGGUGUGUGAAGGAGAAUAAAGCAGCCCUUUGUCUUAAAGAAGACUAAUGUUAAUUGUUCUCAGAACUGGACGUUUUUUUUCCCCCCAUCA | 0.388 |
| AUGGCACACCUAGAUUCUUCUGGAAACAUUCUGGAACCUAUCUGAUGACCAGUAUUUCCAGAGUAAGGUGGAAGAUGAGAAAGAGAUAAGUUACCAAGAGAAGCUGGAGG | 0.409 |

Set 4
Target: Interferon regulatory factor 5, full length, phosphomimetic (IRF5, Homo sapiens, UniProt Q13568-2, residues 1-514, S451D/S453D/S456D/S462D)
Technique: protein-binding microarray
Molecule type: double-stranded DNA, one strand shown
Sample: in vitro
Tested at: 940 nM top
Setting: 60-bp whole probe
Together with: salmon DNA 0.4 mg/ml
Reference: random background probes
Reading: higher = stronger binding
All sequences stand within: GCCTAGCAC … GTCTTGATTCGCTTGACGCTGCTG
| Oligonucleotide | fitted relative affinity [z-score] |
| --- | --- |
| TCAACTCTTTATTTAAGACTGTGCTAG | -0.0821 |
| TTAGGTATCGACACTTGGTTAGTGCTA | 4.29 |
| GACGGTTTCGGTTCCGGGATGTGCTAG | 13.4 |
| TCAAGTATTTTTTTCCAACTGTGCTAG | 0.776 |
| GGCGGACTGGACTTTCGGGACGTGCTA | 0.414 |
| TCCTGTGTCTTAAATAGGGCAGTGCTA | -0.129 |
| TTAGGTAACGGACTGGGTTAGTGCTAG | 0.106 |
| TCATCTCTAGAAATTCCCACTGTGCTA | 0.662 |
| TTAGGTTTCGGGTATCTGTTAGTGCTA | 11.7 |
| CACTCTTTCCTCACCATACTGTGCTAG | 1.79 |
| TTAGATATCGGGTTTCGATTGGTGCTA | 5.45 |
| GACGGTATCGAATATCGGGACGTGCTA | 2.77 |
| AATTTTTTGTATTTTTAGTGGTGCTAG | 0.938 |
| TCTTGTCTGGAGTCTCTGTTCGTGCTA | 1.04 |
| TTAGATATCAGTTTCGATGAGTGCTAG | 6.61 |
| TCTCTCCCTTTATCTCTTTTGTGCTAG | 3.77 |
| GACGATGTCGGGACTGGAGACGTGCTA | -0.572 |
| GAGCCTCTGTTTTGAGCACAGTGCTAG | -0.195 |
| TCACATTTATTTACTCTCACTGTGCTA | 2.17 |
| TGAGGTCTCCTACTGCTTTAGTGCTAG | -0.447 |
| TTAGATTTCCTTCTCCTTTAGTGCTAG | 0.952 |
| TCAGATATAGGATAACGAACTGTGCTA | 0.122 |
| GACGGACTGCACTTTCGGGACGTGCTA | 0.778 |
| GACGTACTGCTTTTCCTGACGTGCTAG | 0.597 |
| TTAGGTCTCCTTCTCCTTGAGTGCTAG | 0.358 |

Some of these lines once more (set 4):
| Oligonucleotide | fitted relative affinity [z-score] |
| --- | --- |
| TCCTGTGTCTTAAATAGGGCAGTGCTA | -0.129 |
| TCATCTCTAGAAATTCCCACTGTGCTA | 0.662 |
| GACGGACTGCACTTTCGGGACGTGCTA | 0.778 |
| GAGCCTCTGTTTTGAGCACAGTGCTAG | -0.195 |
